Results pooled from the literature.
Each line is one published result; not all experiments were run side by side. Numbers after ± are the reported error.
Slc6a3: Sodium-dependent dopamine transporter (Slc6a3, Rattus norvegicus, UniProt P23977)
Sequence of UniProt P23977 (whole entry, looked up): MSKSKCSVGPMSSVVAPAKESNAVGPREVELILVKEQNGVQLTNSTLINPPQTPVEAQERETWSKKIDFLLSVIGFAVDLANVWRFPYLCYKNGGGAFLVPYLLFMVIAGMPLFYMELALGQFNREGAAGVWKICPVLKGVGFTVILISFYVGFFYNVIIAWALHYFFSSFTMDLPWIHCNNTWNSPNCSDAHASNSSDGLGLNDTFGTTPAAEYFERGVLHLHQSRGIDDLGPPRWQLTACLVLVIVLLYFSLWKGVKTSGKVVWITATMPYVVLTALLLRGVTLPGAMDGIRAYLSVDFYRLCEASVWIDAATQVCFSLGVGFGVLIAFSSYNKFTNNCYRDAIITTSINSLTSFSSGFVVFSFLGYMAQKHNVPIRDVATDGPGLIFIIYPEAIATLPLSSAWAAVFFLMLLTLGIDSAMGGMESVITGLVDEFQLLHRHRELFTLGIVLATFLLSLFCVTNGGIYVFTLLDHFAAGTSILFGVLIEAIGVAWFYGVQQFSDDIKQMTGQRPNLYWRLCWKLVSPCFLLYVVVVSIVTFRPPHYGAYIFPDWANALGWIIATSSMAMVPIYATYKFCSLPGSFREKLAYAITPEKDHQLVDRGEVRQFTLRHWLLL
Sequence of UniProt P41143 (whole entry, looked up): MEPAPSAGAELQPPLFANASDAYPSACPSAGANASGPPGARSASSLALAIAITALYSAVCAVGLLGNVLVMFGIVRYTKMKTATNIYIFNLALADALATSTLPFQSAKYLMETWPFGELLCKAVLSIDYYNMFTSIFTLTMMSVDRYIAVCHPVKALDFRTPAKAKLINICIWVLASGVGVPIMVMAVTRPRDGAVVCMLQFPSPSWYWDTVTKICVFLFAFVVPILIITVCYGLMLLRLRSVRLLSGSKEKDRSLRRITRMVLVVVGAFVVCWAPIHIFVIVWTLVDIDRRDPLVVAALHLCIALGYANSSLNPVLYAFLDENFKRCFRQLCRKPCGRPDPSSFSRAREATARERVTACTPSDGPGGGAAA
Sequence of UniProt Q8IIJ9 (whole entry, looked up): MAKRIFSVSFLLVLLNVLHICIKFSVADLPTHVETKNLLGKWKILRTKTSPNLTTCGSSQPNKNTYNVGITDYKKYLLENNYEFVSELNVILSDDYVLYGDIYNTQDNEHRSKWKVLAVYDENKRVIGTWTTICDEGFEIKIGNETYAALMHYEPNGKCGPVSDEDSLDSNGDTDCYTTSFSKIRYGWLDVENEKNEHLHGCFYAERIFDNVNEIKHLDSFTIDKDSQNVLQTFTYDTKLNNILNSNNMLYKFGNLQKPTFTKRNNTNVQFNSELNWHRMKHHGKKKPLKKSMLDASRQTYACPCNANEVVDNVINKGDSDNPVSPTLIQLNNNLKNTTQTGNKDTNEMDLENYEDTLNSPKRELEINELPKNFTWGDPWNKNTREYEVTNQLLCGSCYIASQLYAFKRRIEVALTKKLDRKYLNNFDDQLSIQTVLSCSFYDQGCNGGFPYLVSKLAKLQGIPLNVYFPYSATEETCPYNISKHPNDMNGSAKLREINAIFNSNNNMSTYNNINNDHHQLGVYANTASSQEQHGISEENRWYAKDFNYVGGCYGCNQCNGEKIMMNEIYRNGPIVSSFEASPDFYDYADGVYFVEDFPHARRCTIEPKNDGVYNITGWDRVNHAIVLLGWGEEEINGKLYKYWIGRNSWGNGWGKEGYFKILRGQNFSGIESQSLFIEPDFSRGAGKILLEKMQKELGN
Sequence of UniProt Q7RTT9 (whole entry, looked up): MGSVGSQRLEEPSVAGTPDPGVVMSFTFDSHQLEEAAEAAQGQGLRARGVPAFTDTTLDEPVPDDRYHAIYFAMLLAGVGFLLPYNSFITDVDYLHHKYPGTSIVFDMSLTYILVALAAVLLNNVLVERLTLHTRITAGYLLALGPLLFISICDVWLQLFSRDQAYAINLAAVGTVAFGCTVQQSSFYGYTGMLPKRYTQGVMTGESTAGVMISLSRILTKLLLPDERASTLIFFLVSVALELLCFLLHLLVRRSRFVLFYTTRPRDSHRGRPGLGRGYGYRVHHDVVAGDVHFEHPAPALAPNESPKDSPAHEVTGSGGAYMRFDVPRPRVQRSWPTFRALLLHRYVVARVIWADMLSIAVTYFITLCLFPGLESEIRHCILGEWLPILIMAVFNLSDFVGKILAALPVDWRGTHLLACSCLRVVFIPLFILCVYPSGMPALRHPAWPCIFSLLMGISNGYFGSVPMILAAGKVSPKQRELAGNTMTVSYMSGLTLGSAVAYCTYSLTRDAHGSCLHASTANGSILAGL
Sequence of UniProt P43681 (whole entry, looked up): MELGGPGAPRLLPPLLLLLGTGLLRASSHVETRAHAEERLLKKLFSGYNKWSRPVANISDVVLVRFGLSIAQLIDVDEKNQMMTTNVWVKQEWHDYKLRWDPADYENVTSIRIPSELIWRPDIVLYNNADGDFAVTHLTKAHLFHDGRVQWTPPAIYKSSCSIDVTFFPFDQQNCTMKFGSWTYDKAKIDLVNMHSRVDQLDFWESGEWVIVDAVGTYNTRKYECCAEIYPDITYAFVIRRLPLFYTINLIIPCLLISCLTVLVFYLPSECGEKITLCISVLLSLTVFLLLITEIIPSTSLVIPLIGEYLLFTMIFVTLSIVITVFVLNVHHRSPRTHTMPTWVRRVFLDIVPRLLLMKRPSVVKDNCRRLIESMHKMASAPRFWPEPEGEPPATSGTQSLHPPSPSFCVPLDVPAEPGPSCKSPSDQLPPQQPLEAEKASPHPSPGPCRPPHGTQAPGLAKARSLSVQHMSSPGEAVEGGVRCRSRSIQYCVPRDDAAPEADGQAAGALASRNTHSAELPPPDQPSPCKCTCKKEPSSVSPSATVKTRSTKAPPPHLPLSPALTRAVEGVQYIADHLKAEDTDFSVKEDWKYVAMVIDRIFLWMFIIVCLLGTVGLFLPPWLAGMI
Sequence of UniProt P9WI71 (whole entry, looked up): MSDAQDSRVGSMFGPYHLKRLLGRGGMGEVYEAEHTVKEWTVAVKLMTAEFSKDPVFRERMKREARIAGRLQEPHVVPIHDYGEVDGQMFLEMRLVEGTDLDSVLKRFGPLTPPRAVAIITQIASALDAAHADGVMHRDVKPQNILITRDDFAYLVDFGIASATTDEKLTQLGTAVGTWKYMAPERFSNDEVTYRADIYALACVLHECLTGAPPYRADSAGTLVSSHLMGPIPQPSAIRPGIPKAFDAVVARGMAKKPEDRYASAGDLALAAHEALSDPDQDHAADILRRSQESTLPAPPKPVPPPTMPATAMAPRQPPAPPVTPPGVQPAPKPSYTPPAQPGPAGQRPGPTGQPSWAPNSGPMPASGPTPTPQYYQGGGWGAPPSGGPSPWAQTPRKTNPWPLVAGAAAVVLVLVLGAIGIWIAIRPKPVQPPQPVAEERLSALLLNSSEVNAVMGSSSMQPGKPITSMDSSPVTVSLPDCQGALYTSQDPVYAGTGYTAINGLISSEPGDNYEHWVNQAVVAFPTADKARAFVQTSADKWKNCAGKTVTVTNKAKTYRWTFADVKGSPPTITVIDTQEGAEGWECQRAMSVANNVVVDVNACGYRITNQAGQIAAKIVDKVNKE
Sequence of UniProt P17787 (whole entry, looked up): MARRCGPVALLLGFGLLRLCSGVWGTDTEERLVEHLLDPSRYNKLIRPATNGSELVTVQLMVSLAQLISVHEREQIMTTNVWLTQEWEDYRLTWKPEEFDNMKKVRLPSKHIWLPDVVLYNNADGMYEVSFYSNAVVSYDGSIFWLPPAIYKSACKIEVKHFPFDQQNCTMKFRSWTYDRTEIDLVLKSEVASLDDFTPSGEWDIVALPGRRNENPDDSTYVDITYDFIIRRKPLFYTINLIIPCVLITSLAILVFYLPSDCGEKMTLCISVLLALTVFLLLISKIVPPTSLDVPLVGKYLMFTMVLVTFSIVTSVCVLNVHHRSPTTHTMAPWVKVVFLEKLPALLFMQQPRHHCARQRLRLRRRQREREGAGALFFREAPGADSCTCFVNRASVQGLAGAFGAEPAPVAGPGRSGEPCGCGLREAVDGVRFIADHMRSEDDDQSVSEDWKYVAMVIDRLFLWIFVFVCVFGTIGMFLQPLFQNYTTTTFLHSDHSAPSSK

Nc1ncnc2c1ncn2[C@@H]1O[C@H](COP(=O)(O)OP(=O)(O)O)[C@@H](O)[C@H]1O — ATP production increase (mouse tissue mitochondria; concentration 12.5 to 25 µM, with: glutamate and succinate): ~43%
CNC(C)Cc1ccc2occc2c1 (stereo not drawn) — selectivity ratio (Slc6a3; [3H]MPP+ release, releaser; rat brain synaptosomes; baseline: DAT over SERT, higher = more DAT-selective): 1.56
O=C(CN1CCN(S(=O)(=O)c2ccccc2F)CC1)Nc1ccccc1F — Hill coefficient (Neuronal acetylcholine receptor; alpha4/beta2 (Homo sapiens, UniProt P17787+P43681); inhibitor, calcium accumulation; HEK tsA201 cells): -1.5
Nc1ncnc2c1ncn2[C@@H]1O[C@H](COP(=O)(O)OP(=O)(O)OP(O)(O)=S)[C@@H](O)[C@H]1O — fold change (pknH (Mycobacterium tuberculosis, UniProt P9WI71); ATP probe labelling, competitor, chemoproteomics; Mycobacterium tuberculosis, lysate; 500 µM; baseline: untreated): 11.3 fold
C[C@@H]1C[C@H]2O[C@@H]2/C=C\C=C\C(=O)Cc2c(Cl)c(O)cc(O)c2C(=O)O1 — inhibition (OPRD1 (Homo sapiens, UniProt P41143); ligand displacement, radioligand; 10 µM, cell membranes): -27.8%
CC(N)Cc1ccc2ccoc2c1 (stereo not drawn) — selectivity ratio (Slc6a3; [3H]MPP+ release, releaser; rat brain synaptosomes; baseline: DAT over NET, higher = more DAT-selective): 1.4
CC1=C(C(=O)Nc2cc3cn[nH]c3cc2F)C(c2ccc(Cl)cc2F)N=C(c2ccnc(Cl)c2)N1 (stereo not drawn) — therapeutic window (NIH3T3 in PANC/NIH microtissues; fibroblast toxicity; chronic toxicity, unit not given; baseline: AC50 ATP over AC50 NanoLUC, day 7): 2.47
CN1C(=CC=CC=CC2=[N+](CCCCCC(=O)NCCCC[C@H](NC(=O)[C@H](CCCCNC(=O)COCCOCCOCCNC(=O)[C@H](Cc3ccccc3)NC(=O)[C@H](CCCNC(=N)N)NC(=O)[C@@H]3CCCN3C(=O)[C@H](CC(N)=O)NC(=O)[C@@H]3CCCN3C(=O)[C@H](CO)NC(=O)[C@@H](N)CCCCN)NC(=O)COCCOCCOCCNC(=O)[C@H](CCC(=O)O)NC(=O)[C@H](CCCNC(=N)N)NC(=O)[C@@H]3CCCN3C(=O)[C@H](CCCCN)NC(=O)[C@H](Cc3c[nH]cn3)NC(=O)[C@H](CCCNC(=N)N)NC(=O)[C@@H](N)CCC(N)=O)C(N)=O)c3ccc4ccccc4c3C2(C)C)C(C)(C)c2c1ccc1ccccc21 — sensitivity (Barrett's neoplasia detection, confocal microscopy; human esophageal biopsies; 0.5 µM, T/B ratio cutoff 5.9): 88%
CC[C@H](C)[C@@H]1NC(=O)[C@H](CCCNC(=N)N)NC(=O)[C@H](CC(=O)O)NC(=O)[C@H](CC(C)C)NC(=O)[C@H](CCCCN)NC(=O)[C@H](CC(C)C)NC(=O)CNC(=O)[C@H](Cc2ccccc2)NC(=O)[C@@H](NC(=O)CNC(=O)[C@H](CCCCN)NC(=O)[C@H](CO)NC(=O)[C@H](CC(C)C)NC(=O)CNC(=O)[C@H](CCCCN)NC(=O)[C@H](CCCCN)NC(=O)[C@H](CC(N)=O)NC(=O)[C@H](C)NC(=O)CNC(=O)[C@H](CCCCN)NC(=O)[C@H](Cc2ccc(O)cc2)NC(=O)[C@H](CCCCN)NC(=O)[C@H](CCCNC(=N)N)NC(=O)[C@H](C)NC(=O)[C@H](CC(N)=O)NC(=O)[C@@H]2CCCN2C(=O)[C@H](Cc2c[nH]cn2)NC(=O)[C@H](CCC(=O)O)NC(=O)[C@H](CCC(N)=O)NC(=O)CNC(=O)[C@@H]2CCCN2)CSSC[C@@H](C(=O)O)NC(=O)CNC(=O)[C@H](CC(C)C)NC(=O)CNC(=O)[C@H](CO)NC(=O)[C@H](CCSC)NC(=O)[C@H](CO)NC(=O)CNC1=O — Emax (refers to: urine cGMP/creatinine; human patients with achondroplasia, urine; initial 6 months, sigmoid Emax vs Cmax): 10100 pmol/mg creatinine
C[n+]1ccc(-c2ccccc2)cc1 — Vmax (SLC29A4 (Homo sapiens, UniProt Q7RTT9); substrate, radiolabelled uptake; MDCK expressing YFP-tagged SLC29A4; 1 min, 37 °C, vector background subtracted): 0.62 ± 0.05 nmol/mg protein/min
CCCCC(C(=O)COC(=O)c1c(C)cccc1C)n1cc(C2(N)CCCCC2)nn1 (stereo not drawn) — second-order inactivation rate constant (DPAP1 (Plasmodium falciparum, UniProt Q8IIJ9); inhibitor; parasite lysate; with: (Pro-Arg)2-rhodamine substrate): 34 M⁻¹ s⁻¹
CC1=C(C)C(=O)C(C)=C(C)C1=O — binding free energy (Reaction center protein M chain, QA site (pufM, Cereibacter sphaeroides, UniProt P0C0Y9); P+QA- formation, flash absorbance at 605 nm; Cereibacter sphaeroides, QA-depleted reaction centers; pH 8.0, 22 °C, oxidized neutral quinone at QA site): -8.57 kcal/mol

Excerpt of the above:
CC[C@H](C)[C@@H]1NC(=O)[C@H](CCCNC(=N)N)NC(=O)[C@H](CC(=O)O)NC(=O)[C@H](CC(C)C)NC(=O)[C@H](CCCCN)NC(=O)[C@H](CC(C)C)NC(=O)CNC(=O)[C@H](Cc2ccccc2)NC(=O)[C@@H](NC(=O)CNC(=O)[C@H](CCCCN)NC(=O)[C@H](CO)NC(=O)[C@H](CC(C)C)NC(=O)CNC(=O)[C@H](CCCCN)NC(=O)[C@H](CCCCN)NC(=O)[C@H](CC(N)=O)NC(=O)[C@H](C)NC(=O)CNC(=O)[C@H](CCCCN)NC(=O)[C@H](Cc2ccc(O)cc2)NC(=O)[C@H](CCCCN)NC(=O)[C@H](CCCNC(=N)N)NC(=O)[C@H](C)NC(=O)[C@H](CC(N)=O)NC(=O)[C@@H]2CCCN2C(=O)[C@H](Cc2c[nH]cn2)NC(=O)[C@H](CCC(=O)O)NC(=O)[C@H](CCC(N)=O)NC(=O)CNC(=O)[C@@H]2CCCN2)CSSC[C@@H](C(=O)O)NC(=O)CNC(=O)[C@H](CC(C)C)NC(=O)CNC(=O)[C@H](CO)NC(=O)[C@H](CCSC)NC(=O)[C@H](CO)NC(=O)CNC1=O — Emax (refers to: urine cGMP/creatinine; human patients with achondroplasia, urine; initial 6 months, sigmoid Emax vs Cmax): 10100 pmol/mg creatinine
